Assay results from different studies.
Numbered parts are unrelated; each lists some results of a single study. Changes are numbered by the printed parent chain.

Block 1
Organism: Saccharomyces cerevisiae
Observed: binding
Technique: yeast competitive growth sequencing
Molecule type: peptide
Strain: cyclin B3-Cln2 fusion strain
Notes: peptide tiling library
Reading: direction not given
Quantity: enrichment score
LAKRALKYTD: -1.8
ISRLFPPRTPGWHQLQ: -2.39
VLLKRLQDVVSERANH: -1.48
AGSAKRRLFGEDPPKE: -0.826
CFRCLLFSFSGRSGVE: -1.68
RVSGLLSWTLSRVLWL: -1.09
EPKTLFLGAGDFQF: 1.64
KRRLDLETDHQY: -0.161

Block 2
Target: RING finger protein unkempt homolog, zinc fingers 1-6, SBP tag (UNK, Homo sapiens, UniProt Q9C0B0, residues 30-357)
Chain of UniProt Q9C0B0 (30-357, looked up): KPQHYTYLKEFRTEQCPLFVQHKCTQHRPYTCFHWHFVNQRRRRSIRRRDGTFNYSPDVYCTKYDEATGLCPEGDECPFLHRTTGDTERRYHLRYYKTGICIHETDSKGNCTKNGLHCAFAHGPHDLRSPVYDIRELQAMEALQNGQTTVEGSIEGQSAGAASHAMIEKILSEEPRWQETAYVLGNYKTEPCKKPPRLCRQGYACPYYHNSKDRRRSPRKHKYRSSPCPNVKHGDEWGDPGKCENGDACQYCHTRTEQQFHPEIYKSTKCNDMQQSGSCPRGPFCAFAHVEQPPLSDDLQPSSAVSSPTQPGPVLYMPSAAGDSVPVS
Technique: RNA Bind-n-Seq
Molecule type: RNA
Medium: in vitro
Tested at: 100 nM
Notes: RNA with constant flanks, vertebrate orthologous sites, ends assumed
Relative to: input RNA pool
Reading: higher = stronger binding
Quantity: bound/input enrichment
Constant ends, left off below: GGGAGUUCUACAGUCCGACGAUC … CAACAGAGGAUUGAGCAUCA
GAAGAUGGUGGUUGUACAUUAUUCAUUUAAAGAAUAUAAAAAUUGGUUUUGUUUUGAAGCUAGGUAUUAAUUGGAAUAACUAUUAUACCCGAGAAUGGGGCAGCUGUGCCCUUUCUUUGA: 0.549 ratio
CUGAAGCUUUGUGUUUGGCUGCACCUGCAUAAGCUGCUACAAAUAGAAUAAAGAAUUUCAUAGCCUGUAUCUAUCAUUUAGAUGCAUGGGAAUGGGCUUUGCACAUAGUAGGUUUGGAGC: 1.75 ratio
AAAUUUAUUUCAUGCCCUGGACUCCCUACCGCACUGAUACUUUAAUAGAGUAUGCUUCUAUAGAAGAUUUCCAAAACAGUCGCCAAACAACGACAUACAAACUUCCAAACCGAGUAGAUG: 0.943 ratio
UAAGUGCACGAGCGUCUGCUCACUCCAGAGCGCCUACACUGCUCAUCAUGUGUGUCAUCAUGUGUACACACCCGGUCCCCAAACACAGCGGUGUAGAUUCAAAGGGACACCGAUGCUUCC: 0.253 ratio
GUUAGUUAUAUAGUUAGUUAUAUUUAAUGACCUCAUUCCUAAGUUACUUUCUCAUUAAUGUAGCUUUCAUUUCUGUUGCUGUUGUUUUAAUAAUAUGAUGUAAUAGAAAGUUUGUGCCAG: 0.973 ratio
UUUAAUUGAUCAGGGCUGUAAAUGUAUAUUGAGAGAAUCAGAGUAUUUAUAUAAACAGAGGCAUUUAUUUAAAGAAAAGGGUCAUUCCUCUUUCAUAUGGUGAUCUGUAUUAAUUCCAUU: 0.651 ratio
CUGAAGCUUUGUGUUUGGCUGCACCUGCAUAAGCUGCUACAAAUAGAAUAAAGAAUUUCAUAGCCUGUAUCUAUCAUUUAGAUGCAUGGAAAAUGGGCUUUGCACAAAAUGGGUUUGGAG: 1.58 ratio
CAAAAAAGCGUUUCUACUGGGUUUUGCCUGUAAGAAAAAACAAAAAUGUACCCGAGCACAUAGAGCUUUGAAUAGCACUAACCAAUGCCUUUUUAGAUGUAUUUUUGAUGUACAUAUCUA: 0.37 ratio

Block 3
Target: PABPC1L2, full length, GST fusion (mouse, UniProt A0ABA7IW68)
Technique: RNAcompete
Molecule type: RNA
Medium: in vitro
Tested at: 20 nM
Notes: 7-mer, probes averaged, single round
Relative to: mean of 7-mers
Reading: higher = stronger binding
Quantity: 7-mer Z-score
Residues (chain): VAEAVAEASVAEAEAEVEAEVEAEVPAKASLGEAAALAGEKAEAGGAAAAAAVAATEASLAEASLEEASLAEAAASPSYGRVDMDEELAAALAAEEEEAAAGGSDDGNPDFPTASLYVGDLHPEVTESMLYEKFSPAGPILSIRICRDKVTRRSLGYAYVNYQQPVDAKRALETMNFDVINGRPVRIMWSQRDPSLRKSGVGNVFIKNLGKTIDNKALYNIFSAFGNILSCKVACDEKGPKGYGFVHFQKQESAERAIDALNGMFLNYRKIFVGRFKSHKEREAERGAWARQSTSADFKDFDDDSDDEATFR
CACGCCG: -0.32
AGGAAUG: -0.0246
GUAGGGG: 0.0406
CCUAGUC: -0.532
CUGGUCC: -0.166
AUGACCU: -0.188
UCGGCAC: -0.179
AGCGUCG: -0.349
GCCUCCC: -0.508
UCGUGAC: -0.0591
UUCCGCG: -0.411
UCUUCAG: -0.325
UUUUCAA: -0.278
GAAGGUG: 0.0497
AACAGAA: 1.46
AGCUGUA: 0.00798

Block 4
Target: ABI1, truncated, D143A, DHFR fusion (Arabidopsis thaliana)
Technique: DHFR PCA, deep sequencing
Medium: yeast
Notes: methotrexate growth selection, single substitutions
Together with: (+)-ABA 1.4 µM
Relative to: wild-type fitted maximum
Reading: higher = stronger binding
Quantity: relative binding score
Starting sequence: PYL1, truncated, DHFR fusion (Arabidopsis thaliana); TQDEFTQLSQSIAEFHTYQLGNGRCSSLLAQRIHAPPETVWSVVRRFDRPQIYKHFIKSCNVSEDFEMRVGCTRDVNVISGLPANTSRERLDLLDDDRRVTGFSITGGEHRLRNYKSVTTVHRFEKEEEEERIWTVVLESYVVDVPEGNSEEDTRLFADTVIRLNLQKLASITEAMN
E14W: -4.65%
D144Q: 5.52%
Q31A: -5.91%
K58M: 8.2%
A13P: -18.9%
D48M: -4.61%
Y18N: 0.956%
T173G: -2.58%
A175I: 6.48%
V118E: 2.25%
Y53M: 3.15%
N177G: 58.8%
T154L: -12.1%
A30Y: 45.3%
L91T: 4.01%
D65G: 51%

Block 5
Target: RNA binding protein fox-1 homolog 2, RRM domain, GST-SBP tag (RBFOX2, Homo sapiens, UniProt O43251-10, residues 100-194)
Technique: RNA Bind-n-Seq
Molecule type: RNA
Medium: in vitro
Tested at: 365 nM
Notes: natural RNA segment, single round, ends assumed
Relative to: no-protein control
Reading: higher = stronger binding
Quantity: RBNS enrichment (R)
Constant ends, left off below: GGGAGUUCUACAGUCCGACGAUC … UGGAAUUCUCGGGUGCCAA
Construct (chain): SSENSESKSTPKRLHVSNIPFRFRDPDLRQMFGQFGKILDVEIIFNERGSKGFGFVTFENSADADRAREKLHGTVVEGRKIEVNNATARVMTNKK
ACUAACUCAGUACUCGUGGGAGGACACCCGACCCGGGUGUUCUUUGAGAAGCAGCUGAGUGAGGCAUGUUUUGACAGGAGGAACCCAGUUCUUUUCACUGUUGGUAUUUA: 1.31
GGAACACACACACAGGUGUUCUGACCAGCUCAGGCUUGCCACAGUGAGCAACUCUGUGGCUAGCAAAAGAGAAGUUUAUUUGUGCCCAGCCAUUGGUCACCUUGGGUGAU: 0.306
UCGUCACAGCUCCAGUCUCUCACAUAGUCCUUGGAUUCUGUGCCAUCUGAGUAACUGCUCUUGGUGGCUUCCACUGCCCUGAGGCUUUGAGGGAAGCACCUAACCUCUGC: 0.221
UGGGAUAGAUUUUGAUACACCCAAUACCAUACACACAGGAGCUUGGCAUUUGCAAAGUCUAUUCAGUUUCCUUCCACACUCUGACCCACGGUUGUAGCGGAGUGGGCUGA: 0.531
UUUUCAAGCCAAGAACCAGUAGAAAACAGAAAUAAUGGUGCUCCCAAAUAUUCAGUACCUUGGGCAAUCCAGGAAGGGUUUAAAGAGACCUGUUGCUGCAUAGAACUCUC: 0.43
CUCUGAUGAAUAAAGACCAUGAGUGGAGUUCCUUAACUCAGGCUUUUGUGAGUAGUUUACUAAGGAACUGAAAAUGGUCCCCUUUGUCCAAGCUGAGCUGCUAGGGAAUC: 0.507
AGUGCCCUCAGCUAGGGCACUAGCCCAGCACACCUCUUCUCGGCCCACCUGAGGCCCAGCCAUCGGGCCUGCCUGGGCCCGGGCCCAGCAGUGCUGGACUGAUUCUCCCA: 0.271
UAUUUGUAUAUAUUGAGAUAAUUUAUUUAAUAUACUUUAAAUAAAGGUGACUGGGAAUUGUUACUGUUGUACUUAUUCUAUCUUCCAUUUAUUAUUUAUGUACAAUUUGG: 0.727

Some of these lines once more (block 4):
Q31A: -5.91%
K58M: 8.2%
A13P: -18.9%
D48M: -4.61%
Y18N: 0.956%
T173G: -2.58%
A175I: 6.48%
V118E: 2.25%
Y53M: 3.15%
